Experimental data of several laboratories.
Each line is one published result; not all experiments were run side by side. Numbers after ± are the reported error.
Method: steady-state kinetics
B1: protein (Trichoderma virens, UniProt G9MQB8); chain GQVPVSVNYHFSRKCNKECLFCFHTATTSHVEKPENAKRGLTLLKQAGMKKINFAGGEPFLYPKFLGEMIDFCKETLQLESVSIVTNGSLVKEQFLQKHGRNIDILAVSCDSFNEATNIKIGRGSGDNVQKLYEIGSWCQKYDIKFKLNTVVNKFNHLEDMNDHLNALQPFRWKCFQVLIVTGENDSDKTLRNAHSLTISDDEFDRFCERHSSQTCLVPEPNRLMAKSYLILDEYMRFLDRNGQQPSKSILEVGVQQALQAVFWDEEAFVERGGIYDWNKSSCSSDSKDLEW
B2: enzyme (Bacillus pumilus, UniProt A8FFI9); chain EARSIAWSVDEFFKNREGTFVIQEVKEKSPWVYNKKRAKERFAPQSTFKVANALIGLQTGAVRDEYDIKYWDGVKREIDNWNRDHTLGSGMRDSVVWYYQAMARDIGEERMNHWVKAIHYGNKDISGGIDQFWLSSTLRISPIEQVRFLKQLYEETLPFDLKNMRTVKRMMVQEEEKHATLYGKTGSGSDIGWYVGFIKHEHKTYILATNIKGTGIEAKDITYRILKKYHLMEASV
B3: ERAP1 K528R (Homo sapiens, UniProt Q9NZ08); chain MVFLPLKWSLATMSFLLSSLLALLTVSTPSWCQSTEASPKRSDGTPFPWNKIRLPEYVIPVHYDLLIHANLTTLTFWGTTKVEITASQPTSTIILHSHHLQISRATLRKGAGERLSEEPLQVLEHPRQEQIALLAPEPLLVGLPYTVVIHYAGNLSETFHGFYKSTYRTKEGELRILASTQFEPTAARMAFPCFDEPAFKASFSIKIRREPRHLAISNMPLVKSVTVAEGLIEDHFDVTVKMSTYLVAFIISDFESVSKITKSGVKVSVYAVPDKINQADYALDAAVTLLEFYEDYFSIPYPLPKQDLAAIPDFQSGAMENWGLTTYRESALLFDAEKSSASSKLGITMTVAHELAHQWFGNLVTMEWWNDLWLNEGFAKFMEFVSVSVTHPELKVGDYFFGKCFDAMEVDALNSSHPVSTPVENPAQIREMFDDVSYDKGACILNMLREYLSADAFKSGIVQYLQKHSYKNTKNEDLWDSMASICPTDGVKGMDGFCSRSQHSSSSSHWHQEGVDVKTMMNTWTLQRGFPLITITVRGRNVHMKQEHYMKGSDGAPDTGYLWHVPLTFITSKSDMVHRFLLKTKTDVLILPEEVEWIKFNVGMNGYYIVHYEDDGWDSLTGLLKGTHTAVSSNDRASLINNAFQLVSIGKLSIEKALDLSLYLKHETEIMPVFQGLNELIPMYKLMEKRDMNEVETQFKAFLIRLLRDLIDKQTWTDEGSVSERMLRSQLLLLACVHNYQPCVQRAEGYFRKWKESNGNLSLPVDVTLAVFAVGAQSTEGWDFLYSKYQFSLSSTEKSQIEFALCRTQNKEKLQWLLDESFKGDKIKTQEFPQILTLIGRNPVGYPLAWQFLRKNWNKLVQKFELGSSSIAHMVMGTTNQFSTRTRLEEVKGFFSSLKENGSQLRCVQQTIETIEENIGWMDKNFDKIRVWLQSEKLEHDPEADATG
B4: BshA Y95F (Bacillus subtilis, UniProt P42982); chain MRKLKIGITCYPSVGGSGIIATELGKQLAEKGHEIHFITSSIPFRLNTYHPNIHFHEVEVNQYAVFKYPPYDLTLASKIAEVAERENLDIIHAHFALPHAVCAYLAKQMLKRNIGIVTTLHGTDITVLGYDPSLKDLIRFAIESSDRVTAVSSALAAETYDLIKPEKKIETIYNFIDERVYLKKNTAAIKEKHGILPDEKVVIHVSNFRKVKRVQDVIRVFRNIAGKTKAKLLLVGDGPEKSTACELIRKYGLEDQVLMLGNQDRVEDLYSISDLKLLLSEKESFGLVLLEAMACGVPCIGTNIGGIPEVIKNNVSGFLVDVGDVTAATARAMSILEDEQLSNRFTKAAIEMLENEFSSKKIVSQYEQIYADLAEPE
B5: carbamoyl phosphate synthetase large subunit M911E (Escherichia coli, UniProt P00968); chain PKRTDIKSILILGAGPIVIGQACEFDYSGAQACKALREEGYRVILVNSNPATIMTDPEMADATYIEPIHWEVVRKIIEKERPDAVLPTMGGQTALNCALELERQGVLEEFGVTMIGATADAIDKAEDRRRFDVAMKKIGLETARSGIAHTMEEALAVAADVGFPCIIRPSFTMGGSGGGIAYNREEFEEICARGLDLSPTKELLIDESLIGWKEYEMEVVRDKNDNCIIVCSIENFDAMGIHTGDSITVAPAQTLTDKEYQIMRNASMAVLREIGVETGGSNVQFAVNPKNGRLIVIEMNPRVSRSSALASKATGFPIAKVAAKLAVGYTLDELMNDITGGRTPASFEPSIDYVVTKIPRFNFEKFAGANDRLTTQMKSVGEVMAIGRTQQESLQKALRGLEVGATGFDPKVSLDDPEALTKIRRELKDAGADRIWYIADAFRAGLSVDGVFNLTNIDRWFLVQIEELVRLEEKVAEVGITGLNADFLRQLKRKGFADARLAKLAGVREAEIRKLRDQYDLHPVYKRVDTCAAEFATDTAYMYSTYEEECEANPSTDREKIMVLGGGPNRIGQGIEFDYCCVHASLALREDGYETIMVNCNPETVSTDYDTSDRLYFEPVTLEDVLEIVRIEKPKGVIVQYGGQTPLKLARALEAAGVPVIGTSPDAIDRAEDRERFQHAVERLKLKQPANATVTAIEMAVEKAKEIGYPLVVRPSYVLGGRAMEIVYDEADLRRYFQTAVSVSNDAPVLLDHFLDDAVEVDVDAICDGEMVLIGGIMEHIEQAGVHSGDSACSLPAYTLSQEIQDVMRQQVQKLAFELQVRGLMNVQFAVKNNEVYLIEVNPRAARTVPFVSKATGVPLAKVAARVMAGKSLAEQGVTKEVIPPYYSVKEVVLPFNKFPGVDPLLGPEERSTGEVMGVGRTFAEAFAKAQLGSNSTMKKHGRALLSVREGDKERVVDLAAKLLKQGFELDATHGTAIVLGEAGINPRLVNKVHEGRPHIQDRIKNGEYTYIINTTSGRRAIEDSRVIRRSALQYKVHYDTTLNGGFATAMALNADATEKVISVQEMHAQIK
B6: BaiA2 (Clostridium scindens, UniProt P19337); chain MNLVQDKVTIITGGTRGIGFAAAKIFIDNGAKVSIFGETQEEVDTALAQLKELYPEEEVLGFAPDLTSRDAVMAAVGQVAQKYGRLDVMINNAGITSNNVFSRVSEEEFKHIMDINVTGVFNGAWCAYQCMKDAKKGVIINTASVTGIFGSLSGVGYPASKASVIGLTHGLGREIIRKNIRVVGVAPGVVNTDMTNGNPPEIMEGYLKALPMKRMLEPEEIANVYLFLASDLASGITATTVSVDGAYRP
B7: PTR1 (Leishmania major, UniProt Q01782); chain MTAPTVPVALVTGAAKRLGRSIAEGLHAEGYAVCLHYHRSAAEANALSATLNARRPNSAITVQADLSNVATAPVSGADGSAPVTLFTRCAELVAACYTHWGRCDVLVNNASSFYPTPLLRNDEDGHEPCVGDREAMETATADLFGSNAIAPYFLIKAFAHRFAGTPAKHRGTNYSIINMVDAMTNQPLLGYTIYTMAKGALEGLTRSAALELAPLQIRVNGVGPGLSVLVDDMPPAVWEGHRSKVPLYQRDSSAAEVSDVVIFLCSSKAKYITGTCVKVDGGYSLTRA
B8: CstB (Staphylococcus aureus, UniProt G5ELA4); chain MFFKQFYDNHLSQASYLVGCQRTGEAIIIDPVRDLSKYIEVADSEGLTITQATETHIHADFASGIRDVAKRLNANIYVSGEGEDALGYKNMPSKTQFVKHGDIIQVGNVKLEVLHTPGHTPESISFLLTDLGGGSSVPMGLFSGDFIFVGDIGRPDLLEKSVQIKGSTEISAKQMYESVQNIKNLPDYVQIWPGHGAGSPCGKALGAIPISTIGYEKINNWAFNEIDETKFIESLTSNQPAPPHHFAQMKQVNQFGMNLYQSYDVYPSLDNKRVAFDLRSKEAFHGGHTKGTINIPYNKNFINQIGWYLDFEKDIDLIGDKSTVEKAKHTLQLIGFDKVAGYRLPKSGISTQSVHSADMTGKEEHVLDVRNDEEWNNGHLDQAVNIPHGKLLNENIPFNKEDKIYVHCQSGVRSSIAVGILESKGFENVVNIREGYQDFPESLK
B9: Mj-MAT (Methanocaldococcus jannaschii, UniProt Q58605); chain MRNIIVKKLDVEPIEERPTEIVERKGLGHPDSICDGIAESVSRALCKMYMEKFGTILHHNTDQVELVGGHAYPKFGGGVMVSPIYILLSGRATMEILDKEKNEVIKLPVGTTAVKAAKEYLKKVLRNVDVDKDVIIDCRIGQGSMDLVDVFERQKNEVPLANDTSFGVGYAPLSTTERLVLETERFLNSDELKNEIPAVGEDIKVMGLREGKKITLTIAMAVVDRYVKNIEEYKEVIEKVRKKVEDLAKKIADGYEVEIHINTADDYERESVYLTVTGTSAEMGDDGSVGRGNRVNGLITPFRPMSMEAASGKNPVNHVGKIYNILANLIANDIAKLEGVKECYVRILSQIGKPINEPKALDIEIITEDSYDIKDIEPKAKEIANKWLDNIMEVQKMIVEGKVTTF

Sequence = B1 (protein); substrate = Nc1ccn([C@@H]2O[C@H](COP(=O)(O)OP(=O)(O)OP(=O)(O)O)[C@@H](O)[C@H]2O)c(=O)n1; pH = pH 7.5; setting = KCl 150 mM; with = SAM 1 mM, dithionite 5 mM; kcat = 0.00108 ± 0.0001 s⁻¹
Sequence = B2 (enzyme); substrate = CC(=O)OCC1=C(C(=O)O)N2C(=O)[C@@H](NC(=O)Cc3cccs3)[C@H]2SC1; pH = pH 7; kcat = 0.7 ± 0.03 s⁻¹
Sequence = B3 (ERAP1 K528R); substrate = CC(C)C[C@H](NC(=O)CNC(=O)[C@H](CCC(=O)O)NC(=O)[C@H](Cc1ccccc1)NC(=O)[C@H](CCCNC(=N)N)NC(=O)[C@H](CCCCN)NC(=O)[C@@H](N)Cc1ccc(O)cc1)C(=O)N[C@H](C(=O)N[C@@H](CCC(N)=O)C(=O)N[C@@H](CCCNC(=N)N)C(=O)O)[C@@H](C)O; temperature = 25 °C; kcat = 0.204 ± 0.015 s⁻¹
Sequence = B4 (BshA Y95F); substrate = CC(=O)N[C@H]1[C@@H](OP(=O)(O)OP(=O)(O)OC[C@H]2O[C@@H](n3ccc(=O)[nH]c3=O)[C@H](O)[C@@H]2O)O[C@H](CO)[C@@H](O)[C@@H]1O; pH = pH 7.5; temperature = 21 °C; with = malate 0–25 mM; kcat = 0.92 ± 0.03 s⁻¹
Sequence = B5; substrate = Nc1ncnc2c1ncn2[C@@H]1O[C@H](COP(=O)(O)OP(=O)(O)OP(=O)(O)O)[C@@H](O)[C@H]1O; pH = pH 7.6; setting = KCl 100 mM; with = glutamine 10 mM, ornithine 10 mM; kcat = 0.5 ± 0.05 s⁻¹
Sequence = B6 (BaiA2); substrate = C[C@H](CCC(=O)SCCNC(=O)CCNC(=O)[C@H](O)C(C)(C)COP(=O)(O)OP(=O)(O)OC[C@H]1O[C@@H](n2cnc3c(N)ncnc32)[C@H](O)[C@@H]1OP(=O)(O)O)[C@H]1CC[C@H]2[C@@H]3CC[C@@H]4C[C@H](O)CC[C@]4(C)[C@H]3CC[C@]12C; pH = pH 8.7; temperature = 37 °C; with = NAD+; kcat = 0.183 s⁻¹
Sequence = B7 (PTR1); substrate = C[C@H](O)[C@H](O)C1=Nc2c(nc(N)[nH]c2=O)NC1; pH = pH 7.4; temperature = 25 °C; setting = apparent; kcat = 0.57 s⁻¹
Sequence = B8 (CstB); substrate = O=S(O)(O)=S; pH = pH 6; temperature = 25 °C; with = KCN 50 mM; kcat = 8.5 ± 0.5 s⁻¹
Sequence = B9 (Mj-MAT); substrate = CSCC[C@H](N)C(=O)O; temperature = 55 °C; with = ATP 2.5 mM, methionine 0.05-1 mM; kcat = 1.46 ± 0.05 s⁻¹

Excerpt of the above:
Sequence = B5; substrate = Nc1ncnc2c1ncn2[C@@H]1O[C@H](COP(=O)(O)OP(=O)(O)OP(=O)(O)O)[C@@H](O)[C@H]1O; pH = pH 7.6; setting = KCl 100 mM; with = glutamine 10 mM, ornithine 10 mM; kcat = 0.5 ± 0.05 s⁻¹
